# Measurements of several laboratories.
# Parts stem from different laboratories: compare values within a part only. Positions count from the first letter of the parent shown.

# Series 1 — method: DHFR PCA, deep sequencing; matrix: yeast; with: (+)-ABA 0.0091 µM; reference: wild-type fitted maximum; direction: higher = stronger binding
# Target: ABI1, truncated, D143A, DHFR fusion (Arabidopsis thaliana)
# Notes: methotrexate growth selection, single substitutions
# Starting sequence: PYL1, truncated, DHFR fusion (Arabidopsis thaliana); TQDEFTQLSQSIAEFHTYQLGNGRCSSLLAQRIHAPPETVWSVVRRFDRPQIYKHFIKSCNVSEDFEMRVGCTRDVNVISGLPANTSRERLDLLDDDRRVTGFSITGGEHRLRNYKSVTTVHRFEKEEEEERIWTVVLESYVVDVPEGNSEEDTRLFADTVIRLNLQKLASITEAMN; partner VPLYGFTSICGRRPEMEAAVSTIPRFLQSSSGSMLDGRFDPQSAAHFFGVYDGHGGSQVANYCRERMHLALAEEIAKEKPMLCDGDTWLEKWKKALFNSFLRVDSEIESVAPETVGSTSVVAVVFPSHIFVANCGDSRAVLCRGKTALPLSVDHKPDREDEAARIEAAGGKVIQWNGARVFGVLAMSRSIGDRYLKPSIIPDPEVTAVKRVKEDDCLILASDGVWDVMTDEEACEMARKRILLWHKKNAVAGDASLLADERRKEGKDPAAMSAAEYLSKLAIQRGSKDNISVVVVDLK
Variant,relative binding score
S87T,38.3%
D65Y,3.3%
H16I,-3.69%
S80C,27.9%
Y141D,1.26%
A170I,-11.7%
V70H,0.177%
V136K,-9.44%
R123Y,-1.59%
E147Y,10.4%
R46A,20.7%
G21F,-1%
C25F,11.6%
I33F,-5.62%

# Series 2 — target: CCNE2, cyclin fold, Cln2 fusion (human); method: yeast growth competition, sequencing; matrix: yeast; notes: weak parent motif; reference: not given; direction: higher = stronger binding
# Starting sequence: SLBP docking peptide (human); ARYKRKLLINDFG; partner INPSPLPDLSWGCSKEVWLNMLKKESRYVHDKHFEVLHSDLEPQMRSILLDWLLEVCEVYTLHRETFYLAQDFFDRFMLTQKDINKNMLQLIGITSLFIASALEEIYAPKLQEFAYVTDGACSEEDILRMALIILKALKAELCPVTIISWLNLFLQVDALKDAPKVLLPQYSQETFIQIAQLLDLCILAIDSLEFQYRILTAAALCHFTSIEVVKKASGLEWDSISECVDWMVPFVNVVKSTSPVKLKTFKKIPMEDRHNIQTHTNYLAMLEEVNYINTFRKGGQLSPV
Variant,normalised enrichment score
L7Q,0.3
N10I,1.01
N10F,1.33
K6I,0.628
G13S,-0.22
R5C,1
L8G,0.777
R5N,0.304
L7C,0.754
A1F,0.261
L8N,1.28
G13M,1.04
R5E,0.56
F12A,0.588
D11T,1.41
Y3W,0.454

# Series 3 — method: RNA Bind-n-Seq; form: RNA; matrix: in vitro; concentration: 100 nM; reference: input RNA pool; direction: higher = stronger binding
# Target: RING finger protein unkempt homolog, zinc fingers 1-6, SBP tag (UNK, Homo sapiens, UniProt Q9C0B0, residues 30-357)
# UniProt Q9C0B0, sequence (30-357, looked up): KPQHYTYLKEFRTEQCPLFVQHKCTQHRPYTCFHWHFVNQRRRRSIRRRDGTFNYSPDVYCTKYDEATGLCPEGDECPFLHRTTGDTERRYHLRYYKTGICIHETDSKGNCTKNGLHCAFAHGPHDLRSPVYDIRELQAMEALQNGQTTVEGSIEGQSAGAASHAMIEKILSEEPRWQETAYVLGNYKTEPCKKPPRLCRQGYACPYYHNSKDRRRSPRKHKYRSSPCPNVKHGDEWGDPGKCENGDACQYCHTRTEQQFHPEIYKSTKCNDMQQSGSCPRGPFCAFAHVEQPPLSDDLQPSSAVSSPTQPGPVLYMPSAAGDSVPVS
# Notes: RNA with constant flanks, vertebrate orthologous sites, ends assumed
# Shared flanks, not repeated: GGGAGUUCUACAGUCCGACGAUC … CAACAGAGGAUUGAGCAUCA
Strand,bound/input enrichment [ratio]
CUCCCCGUUACCCCUAAGGUAGAACUUUUUAAAAUUGUGUCACCACCACUUCCAAAAAUUUAGCAAUAUUGGAAGAAAAUGCUAAUAAAGUAAAAAAAAAUUUGCUUGCUGUUUUGGAAA,0.274
CAGCUGAUUCACUCAUUGGGAGAGCUGCACAUAUAGCUGUUCUUGAUUCAGAAAUAUUUUUAGAGAAAUUCUUUCUGGUUGCUGCCCUCAAAUAUUUCCAAUAGGAUAAAAACAUUGUUA,0.986
UGUCUGCCUCAUUCUAAAAUUUACACAGUAGACCAUUUGUCAUUCAUGCUGUCCCACAAAUAGUUUUUUGUUUACGAUUUAUGACAGGUUUAUGUUACUUCUAUUUGAAUUUCUAUAUUU,1.07
AGAAAAUUUUAACCAAGAAUCUGAAGGUAGAAAUACAGGACCGUGGUUGUCUUCCUCACUUAGAAAUAGAUGCACACCUUUGUUCUCUAGAAGGAGACGAGAGGGACGAGAUGAAUCUUC,0.521
CAACUCCAUGGUUGAGGGCUCAGAACUCAAAAAGCUUCGCUCCAACUCUAGAAUCUACCACAGGUAUUUUUUGCUGGAUGCUGACAUGCAGAGCCUGAGGUGGGAACCAUCGAAGAAAGA,0.135
GUUCUUAUUACACUCUUCUAGGGAAGAGAUGAACUGGGGAAAACUCUCCUUUUUAUAGAUUAAUUUCUCUCUAAAUUAUGACCAAAAAUAUUUUGCUAUUUCUUUCUUUAUAUAUGCACA,1.44
UAAUGUGUUUUUAUUUAUUGAAAAUAGUUUUGUGCUAAGGAUUGUGUUAGAUUUACAAAUUAGUGGAUUGAUUGCUCUUUGUUGUGUUGCUUUCAUUGUUGAAAAUAAAUAGAACUUUGA,1.02
ACAGGAGCAGCACAGGCUGUCUGAUCUUUGGGGAAAUGAGCUUUGCUUUUUAUAUUUAAAUAGGAUACUUUUAUAUGAUGGGUGCUUUGAGUGUGAAUGCAGCAGGCUCUCCAUUUCAGA,0.938
GGGACGCUUUGAUGUAAAAAUUGAAGUUAAGAGCUGAUCACAAGCACAAAUCCUCCCCACUAGCCAUUUAAUAAGUUAAAAAAUUACAAAAACAAAAACCUACUAGUCUUGAACAAACUG,8.32
AUUGACAGUGAAAAGAGCCAAGCAGUAGCAUUUUGUUUUUUUUAUAAAUGUAAAAAUUAGAUUCACUUUGUUUCCUAUUCAGUUUUAAAAAUAAAAAUACCUCAGUGCUGUGUUUCCCAG,0.615
UUGGGACCAGCUCUCCAAGUAGGAAUAGUAGUAAAAAAAAUAAGCAAAAUGAUAUUUGUAUAGAAAAGACAGAAGUUAAAUCAUGUAAAGUAAAUGCUGCCAACAUAGCAAGUCCUAAAG,1.28

# Series 4 — method: RNA Bind-n-Seq; form: RNA; matrix: in vitro; concentration: 1 µM; notes: whole 134-nt RNA, ends assumed; with: 150 mM KCl; reference: input library; direction: higher = stronger binding
# Target: Ras GTPase-activating protein-binding protein 1, RRM domain (G3BP1, Homo sapiens, UniProt Q13283)
# UniProt Q13283, sequence (whole entry, looked up): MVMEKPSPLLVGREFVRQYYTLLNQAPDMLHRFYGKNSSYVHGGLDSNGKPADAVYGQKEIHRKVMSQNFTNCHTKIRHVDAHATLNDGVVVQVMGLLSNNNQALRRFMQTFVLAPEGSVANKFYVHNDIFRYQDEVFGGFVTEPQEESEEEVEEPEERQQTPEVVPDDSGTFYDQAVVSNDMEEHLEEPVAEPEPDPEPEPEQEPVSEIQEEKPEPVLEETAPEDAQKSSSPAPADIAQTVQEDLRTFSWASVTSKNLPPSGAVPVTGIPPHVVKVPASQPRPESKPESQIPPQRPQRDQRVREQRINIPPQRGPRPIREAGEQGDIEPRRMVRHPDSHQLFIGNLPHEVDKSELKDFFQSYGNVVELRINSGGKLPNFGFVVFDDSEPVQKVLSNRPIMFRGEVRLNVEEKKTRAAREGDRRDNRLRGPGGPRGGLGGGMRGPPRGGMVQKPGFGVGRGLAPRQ
# Shared flanks, not repeated: GGGAGUUCUACAGUCCGACGAUC … UGGAAUUCUCGGGUGUCAAGG
Strand,log2 enrichment
UGCCCCUGGUGGCAUGCGGGGAGGAAGAGGUGGCCUCAUGGAUCGUGGUGGUCCCGGUGGAAUGUUCAGAGGUGGCCGUGGUGGAGACAG,0.692
ACCAUGCAGGUGGGCAUCUUUGGGAAGUGGGGCAAGGGGGGGAUAGAAAGGGGGGUAACACUUUGGGAACAGGUGGUCCCAGGUCGUUUC,-0.263
AAGUCCUGUGCUACACAUCGUAUGUACCGAAUCGGUUUUUGGAAAGGAAAAAAAGGAAAGUAUUAUGUUACGCCGUUCGGAUCUGCACUU,-0.0731
AGUCCUGUGCUACACAUCGUAUGUACCGAAUCGGAAAAAGGAAAAAAAGGAAAAAGGAAAGUAUUAUGUUACGCCGUUCGGAUCUGCACU,0.0361
UCCUGUGCUACACAUCGUAUGUACCGAAUCGGCCCCCGGGGCCCCCGGGGCCCCCGGGGAAAGUAUUAUGUUACGCCGUUCGGAUCUGCA,-0.693
UUUGCAGGGAGUGGUACGGGUAUCACUUUCCGGAGCUGGUGAAGAUCAUCAACGACAAUGCCACAUACUGCCGUCUUGCCCAGUUUAUUG,-0.145
UCCUGUGCUACACAUCGUAUGUACCGAAUCGGGGUUUUUUUGGGGAGGGGUUUUUGGGGAAAGUAUUAUGUUACGCCGUUCGGAUCUGCA,0.59
CAAGUCCUGUGCUACACAUCGUAUGUACCGAAUCGGUUUUUGGUGGAAAAAAAGGAAAGUAUUAUGUUACGCCGUUCGGAUCUGCACUUC,-0.198
AAGUCCUGUGCUACACAUCGUAUGUACCGAAUCGUGUGUGUGUGUGUGUGUGUGUGUAAAGUAUUAUGUUACGCCGUUCGGAUCUGCACU,0.0114
UGGGAGGUGGAUUUUGUUUAUUUUUUUAGCUCAUUUCCAGGGGUCGGAAUUUUUUUUUAAUAUGUGUCAUGAAUAAAGUUGUUUUUGAAA,1.25
CAAGUCCUGUGCUACACAUCGUAUGUACCGAAUCGGAGGAAAAAAAGGAAAAAGGAAAGUAUUAUGUUACGCCGUUCGGAUCUGCACUUC,-0.164
UCCUCAAGUCCUGUGCUACACAUCGUAUGUACCGAAUCGGAGGGAGGGAGGGAAAGUAUUAUGUUACGCCGUUCGGAUCUGCACUUCCAG,0.601
ACCAUGCAGGUGGGCAUCUUUGGGAAGUGGGAAAAGGGGGGGAUAGGGAGGGGGGUAACACUUUGGGAACAGGUGGUCCCAGGUCGUUUC,-0.371
GCAGGAAGUAAAAACAAAUGGAAAUGCUUCGGAUAGUGGCAGGGGUGGGGGUUGCUAAGGAAAGCGUGGGAUGGGAGUGGGUAAAGAGUU,0.961

# Series 5 — method: EMSA with sequencing; form: double-stranded DNA, one strand shown; matrix: in vitro; concentration: 10 and 20 nM; reference: negative control set to 0; direction: higher = stronger binding
# Target: Hepatocyte nuclear factor 3-alpha (Foxa1, Mus musculus, UniProt P35582, residues 1-468, full length assumed)
# UniProt P35582, sequence (whole entry, looked up): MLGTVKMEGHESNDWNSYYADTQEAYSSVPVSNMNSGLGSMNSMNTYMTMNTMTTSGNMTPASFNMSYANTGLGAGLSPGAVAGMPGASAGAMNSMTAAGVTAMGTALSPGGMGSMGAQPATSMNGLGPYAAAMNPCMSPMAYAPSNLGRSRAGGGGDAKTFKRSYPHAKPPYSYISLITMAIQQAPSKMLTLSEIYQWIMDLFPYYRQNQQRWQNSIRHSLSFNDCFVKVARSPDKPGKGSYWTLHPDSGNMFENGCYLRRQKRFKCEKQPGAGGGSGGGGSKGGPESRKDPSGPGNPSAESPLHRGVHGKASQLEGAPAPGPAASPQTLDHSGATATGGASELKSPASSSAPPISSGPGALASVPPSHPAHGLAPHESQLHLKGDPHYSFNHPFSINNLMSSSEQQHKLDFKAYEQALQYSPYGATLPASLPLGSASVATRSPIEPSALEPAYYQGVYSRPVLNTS
# Notes: whole designed probe, mean of two concentrations, ends assumed
# Shared flanks, not repeated: GTGAGCGGTGCCCATTGATGGGGAAC … TTTCACTGGGATCGTGGGGAC
Strand,normalised bound fraction
ACCAATAAGAGGCCTTTTTGAACAGTGACGCCAGGCGCCCTGGCGCTGCCCCCAAGCTCGTGCCTCATTTACAGCCTGCGGGCGGGAGTCTCCTTGTTTACCAAAGCAGAGGGCGTGTGGGAGGCGGGGGCCGTCGCTCGCTCCCGCCTCCTCGGAAACCTTGTCCCCACAACCGCTGCGTGTTAAAAAGGAC,0.205 ratio
TACAGACTCACATTCACCTTGCGCCACACTACCTTTACGGTATAGTGAACTCCTTTCAGTCCCTTTCTTTCACAATAGTCTGCATAATCTAAGTAATCTGGAGACTTGTGTCTTTCACTGTTCCTAGACACTTCGCAACTAATATATTGCTTGCATATAGACACTAGATATCTCTGAATAAATCAACAGAAGA,0.089 ratio
ATCTTCCCCCTCTTCCTTGCCCCACCAGCTCACCTTCCCGGGTTATTTGCACAAAGGAAAATAAATAAAGCCGGCATTCGTTAACGCAGTTCTGGCGCAAACTGCTGTTTGCTCTGCATCTAACATGGTCCTTACGCGAGGCGTGGCTCCGGGAGAGCAAAGCACCGTGTCAGGCGCATGATCCGGGCTCGCC,0.389 ratio
ATGTGGGAACTAATTGAGGACCATGTTTACAATGCGTACAAATCATAAATCAATTAGTTCATATTGATTTACAAGGAAGAAACAAAAAGTATTTGTTTACATTGATACTGTCCATGTAAACTTTTTTCAATTCAAAAGAAACACATAGTTCTGTCATAAAGTAGATTTTCTATCCCTTTTATTTTCTGAGCTT,0.497 ratio
TTCTGGACGCTGTGAAGAAAACAAAACAATGGACTGTCTTTTAATCGTCCTTAAATAGCTCAGTAAAATTTAAACAATGCTTGCATTCTCTGTGTAATCTCAGTGACTGATGCCGAGGCCCCTAGGACTGCTTGGAGCTAATGGGATTAATAAGAATGCCTGAGGGTAACATCTATCACAAATTAATGTTTCC,0.0601 ratio
CTCCGGTCTAGTAGGAGATGACCATGGTCAAGGAGACACGTGCTCCCCAGGGTGGAGGGCTGGAGTCCCAAAGCAGGAATGCTATGTTTTGTTGTTTACTCTGAAGAACCCCGGAGATTCATTAGGAAACAGGGCATGTGCTCCCGGGACATTTGGAAAATCAAATTTGAAAATATATATATATATTCACTGG,0.293 ratio
AAAAAAGAAATACATTGAGTCTACTGACAAGATATCCACAACATGTTAAAAAGCCAAGTAGCAAAATATAGTATGCAATCTAATACTACGTAATGTAAACATGCAGATGGTACCTATTTAAGTGTATTTATCTTTCCAAACACACCACATATGTTTATACATGTGTGTGAAAGGGTATACATACACTCAACAG,0.457 ratio
GAAATTATGACTATCACTGTGAGGAGAAAATTGCATTGCTATGTGAAAAGAAATTCTCCTAGTTGTCCATTTTTTAAAGCTATATTTTTCCTTGTTTACTTTAACATTTGTGGAGGTTGTTTTATTGACCCTAAATCCACAAATATTCTGTTTTCTCTTGAATCAATAATCACCCTGTTTCCTCCTGGTTGTT,0.451 ratio
